Measurements gathered from unrelated publications.
± marks the error that the study gave.

N=C(N)Nc1ccc(-c2nc3ccc(-c4ccc5nc(-c6ccc(NC(=N)N)cc6)[nH]c5c4)cc3[nH]2)cc1 — MBNL1 exon 5 splicing (wild-type corneal endothelial cells; concentration not given): no effect
CCCc1cc2c(c(OC)c1OC)OCO2 — GI50 (HCT-116; cell growth or viability, MTT; 72 h): 193 µM
COC1CC(=O)N(C)C=CCCCC(=O)N(C)C(C(C)C)C(=O)N(C)C(CC(C)C)C(=O)OC(C(C)C)CC(C)C1 (stereo not drawn) — pathway activation z-score (HCT-116; RNA sequencing, item: hepatic fibrosis signalling pathway; 20 µM, 12 h; direction not given): 2.12
C[C@H]1C(OCCCCCC[P+](c2ccccc2)(c2ccccc2)c2ccccc2)O[C@@H]2O[C@@]3(C)CCC4[C@H](C)CCC1[C@]42OO3 (stereo partly drawn) — selectivity index (T24; MTT; 72 h; baseline: HUVEC IC50 over T24 IC50): 2.07
CC/C=C\C/C=C\C/C=C\C/C=C\C/C=C\C/C=C\CCC(=O)Nc1ccn(C2OC(CO)C(O)C2(F)F)c(=O)n1 (stereo not drawn) — CC50 (U-251; NCI60 screen): 43.9 µM
CC[C@H]1OC(=O)[C@H](C(C)C)NC(=O)[C@H](C)OC(=O)[C@@H](C(C)C)NC(=O)[C@@H](C(C)C)OC(=O)[C@H](C(C)C)NC(=O)[C@H](C)OC(=O)[C@@H](C(C)C)NC(=O)[C@@H](C(C)C)OC(=O)[C@H](C(C)C)NC(=O)[C@H](C)OC(=O)[C@@H](C(C)C)NC1=O — G2/M phase cells (U-87 MG; PI staining flow cytometry; 0.8 µM, 12 h): 9%
O=C1/C(=C/c2ccc3c(c2)OCCO3)SC(=S)N1[C@@H]1O[C@H](CO)[C@@H](O)[C@H](O)[C@H]1O — mRNA fold change (HepG2; item: P53; IC50, 48 h; baseline: untreated): 9.53 fold
CC[C@H](C)[C@H](NC(=O)[C@@H](NC(=O)[C@H](CC(N)=O)NC(=O)[C@H](CCC(N)=O)NC(=O)[C@@H]1CCCN1C(=O)[C@@H](NC(=O)[C@H](Cc1ccc(O)cc1)NC(=O)CNC(=O)[C@H](Cc1ccc(O)cc1)NC(=O)[C@H](Cc1c[nH]c2ccccc12)NC(=O)[C@H](Cc1c[nH]cn1)NC(=O)[C@H](Cc1ccc(O)cc1)NC(=O)CNC(=O)CCCC1=C2C(C)=CC(C)=[N+]2[B-](F)(F)n2c(C)cc(C)c21)[C@@H](C)O)C(C)C)C(N)=O — cellular uptake (HEp-2; 10 µM, 24 h; baseline: BODIPY 1): ~5 fold
COC(=O)c1ccc(-n2cc(CCCN(CCNc3ccnc4cc(Cl)ccc34)C(=O)CCC(=O)OC3OC4OC5(C)CCC6C(C)CCC(C3C)C46OO5)nn2)cc1 (stereo not drawn) — inhibition (HL-60; cell growth or viability, resazurin; 10 µM, 48 h): 63.4%
CC[C@H](C)[C@H](NC(=O)[C@H](Cc1ccccc1)NC(=O)[C@H](CC(=O)O)NC(=O)[C@H](CCCCN)NC(=O)[C@H](C)NC(=O)[C@H](CCCCN)NC(=O)[C@H](CC(N)=O)NC(=O)[C@H](CC(C)C)NC(=O)[C@H](Cc1c[nH]c2ccccc12)NC(=O)[C@H](CCC(=O)O)NC(=O)[C@H](CCCCN)NC(=O)[C@@H](NC(=O)CN)[C@@H](C)O)C(=O)N[C@@H](CCCCN)C(=O)N[C@@H](CCC(=O)O)C(=O)N[C@@H](CCCCN)C(=O)NCC(=O)N[C@@H](CC(C)C)C(=O)NCC(=O)N[C@@H](CCSC)C(=O)N[C@@H](CC(C)C)C(=O)N[C@@H](CO)C(=O)N[C@@H](C)C(=O)N[C@@H](C)C(=O)N[C@@H](C)C(=O)N[C@@H](CC(N)=O)C(=O)N[C@@H](C)C(=O)N[C@@H](C)C(=O)N[C@@H](CC(C)C)C(=O)N[C@@H](CC(N)=O)C(=O)O — intracellular calcium increase (mouse DRG neurons; 10 µM, 90 s): inactive
O=C(O)CCC(NP(=O)(O)OCCC[C@@H](NC(=O)CCC(NC(=O)c1ccc([18F])cc1)C(=O)O)C(=O)O)C(=O)O (stereo partly drawn) — surface-bound fraction (CWR22Rv1; 2 h): 5.85 ± 2.05%
CC[C@@]1(O)C(=O)OCc2c1cc1n(c2=O)Cc2cc3cc(OC(=O)CCCC(=O)NCC(=O)N[C@@H](Cc4ccccc4)C(=O)N[C@@H](Cc4ccccc4)C(=O)N[C@@H](Cc4ccc(OP(=O)(O)O)cc4)C(=O)NCCSSCCNC(=O)CCC(=O)N[C@@H](CCC(=O)O)C(=O)N[C@@H](CCCNC(=N)N)C(=O)NCC(=O)N[C@@H](CC(=O)O)C(=O)O)ccc3nc2-1 — cellular uptake (HepG2; flow cytometry; 100 µM, 4 h; baseline: free HCPT): 20 fold
CC(C)[C@H](NC(=O)c1ccc(CNc2nc3c(c(=O)[nH]2)CCC3)cc1)C(=O)NC1CNC1 — osteoclast differentiation (mouse osteoclast precursors; 10 µM, 5 to 7 d, with: M-CSF and RANKL; baseline: control): 31%
CC(=O)Oc1cccc(/C=C/C(=O)Nc2nc(=O)n([C@@H]3O[C@H](C)[C@@H](OC(C)=O)[C@H]3OC(C)=O)cc2F)c1 — selectivity index (ASPC1; cell viability, MTT; baseline: NHDF fibroblasts over ASPC1): 1.62
C[C@H]1C(OCCCCCCCC[P+](c2ccccc2)(c2ccccc2)c2ccccc2)O[C@@H]2O[C@@]3(C)CCC4[C@H](C)CCC1[C@]42OO3 (stereo partly drawn) — protein level (J82 and T24; western blot, item: PCNA; concentration not given, 48 h): decreased
F[P-](F)(F)(F)(F)F.F[P-](F)(F)(F)(F)F.[Ru+2].c1ccc(-c2ccccn2)nc1.c1ccc(-c2ccccn2)nc1.c1csc(-c2ccc(-c3ccc(-c4cc5cccnc5c5ncccc45)s3)s2)c1 — phototherapeutic index (HL-60; cell viability; visible light; baseline: dark EC50 over light EC50): 800
CCc1ccc(C(=O)N[C@@H](CO)C(=O)N[C@H](C(=O)N2CCC[C@H]2C(=O)N[C@@H](CC(N)=O)C(=O)NCC(=O)N[C@@H](CC(C)C)C(=O)O)[C@@H](C)OP(=O)(O)O)cc1 — apoptotic cells (HeLa, QQ transfected; 30 µM, 24 h): 36.2%
CN1/C(=C/C=C2\CCCC(/C=C/C3=[N+](C)c4ccccc4C3(C)C)=C2SCCC(=O)N[C@@H](Cc2ccccc2)C(=O)N[C@@H](Cc2ccccc2)C(=O)N[C@@H](CCCCNC(=O)CCC(=O)O)C(=O)N[C@@H](CCCCNC(=O)CCCC[C@@H]2SC[C@@H]3NC(=O)N[C@@H]32)C(=O)O)C(C)(C)c2ccccc21 — viability (4T1; CCK-8; 20 µM, 4 h then 24 h, dark; baseline: untreated): > 80%
CC[C@H](C)[C@H](NC(=O)[C@@H]1CCCN1C(=O)[C@@H](N)C(C)C)C(=O)N[C@@H](C)C(N)=O — viability (PC-12; Aβ42-induced neurotoxicity, inhibitor, MTT; concentration not given, 6 h, 37 °C, peptide to Aβ42 1:2, with: Aβ42 2 µM; baseline: untreated cells): 96%
C/C(=N\OCCCN1CCCCC1)c1ccc(C(F)(F)F)cc1 — inhibition (HEK293 expressing human σ1R; store-operated calcium entry, item: intracellular Ca2+; 10 µM): inhibited
COC(=O)[C@H](CC(C)C)NC(=O)[C@@H]1CCCN1C(=O)[C@@H](NC(=O)[C@H](CCC(=O)C=[N+]=[N-])NC(=O)OCc1ccccc1)C(C)C — PGC-1α mRNA level (Huntington's disease patient myoblasts; 50 µM, 2 h): increased

A few entries again:
COC(=O)c1ccc(-n2cc(CCCN(CCNc3ccnc4cc(Cl)ccc34)C(=O)CCC(=O)OC3OC4OC5(C)CCC6C(C)CCC(C3C)C46OO5)nn2)cc1 (stereo not drawn) — inhibition (HL-60; cell growth or viability, resazurin; 10 µM, 48 h): 63.4%
COC1CC(=O)N(C)C=CCCCC(=O)N(C)C(C(C)C)C(=O)N(C)C(CC(C)C)C(=O)OC(C(C)C)CC(C)C1 (stereo not drawn) — pathway activation z-score (HCT-116; RNA sequencing, item: hepatic fibrosis signalling pathway; 20 µM, 12 h; direction not given): 2.12
